Published values collected from several papers.
Lines come from different studies, so protocols differ.
HIPK3: Homeodomain-interacting protein kinase 3 (HIPK3, Homo sapiens, UniProt Q9H422)

`C=CC(=O)N1Cc2nc(-c3cc(-c4cc(Cl)cnc4Cl)c(F)cc3F)n(-c3ccncn3)c2C1` has an inhibition of 5.5% (HIPK3; cell-free assay, inhibitor; 1 µM).
The remaining binding of `CNC(=O)C1CCN(c2cc(C)c(F)cc2NC(=O)c2ccc(-c3cc(O)ccc3C)c(C)c2)CC1` is reported as 100% (HIPK3; binding, competition with immobilised ligand; 1 µM).
The remaining activity of `COc1c(OCCCN2CCOCC2)ccc2c1N=C(NC(=O)c1cnc(N)nc1)N1CCN=C21` is reported as 103% (HIPK3; kinase activity, inhibitor; 1 µM; baseline: untreated control).
`CN1CC[C@@H](COc2cnc(C#N)cc2-c2ccn3nc(NC(=O)C4CC4)cc3c2)C1` has an inhibition of 9% (HIPK3; enzyme activity, inhibitor; 1 µM).
`C=CC(=O)N1CCc2ccc(-n3c(=O)ccc4cnc5ccc(-c6cnn(C)c6)cc5c43)cc21` gave a remaining binding of 68% (HIPK3; KINOMEscan; 1 µM; baseline: DMSO control).
`CN1CCN(Cc2ccc(-c3ccc(CO[C@H]4CCC[C@@H]4NC(=O)c4cc(-c5cnn(C)c5)cnc4N)cc3)cc2)CC1` has an inhibition of 3% (HIPK3; enzyme activity, inhibitor; 0.1 µM).
For `C=CC(=O)Nc1cccc(-c2cnc3[nH]cc(C(=O)NC(C)(C)C)c3n2)c1`, the inhibition was 47% (HIPK3; enzyme activity, inhibitor; 0.1 µM).
`COc1cc2nc(N(CCCN(C)C)C(=O)c3ccc(S(=O)(=O)N4CCc5ccccc54)cc3)sc2cc1OC.Cl` gave a relative translation of 96.2% (Trypanosoma cruzi; reporter mRNA translation, inhibitor, measured: capped polyadenylated Renilla luciferase mRNA; cell-free extract; concentration not given; baseline: control RNA).
With `Nc1ncc(-c2cc(-c3cnn(CC(F)(F)F)c3)ncc2F)nc1C(=O)NC1CNCC(F)C1` (stereo not shown) the remaining activity was 99.2% (HIPK3; enzyme activity; 1 µM; baseline: DMSO control).
For `CCN1CCN(Cc2ccc(C(=O)Nc3ccc(C)c(NCc4cnc5[nH]ccc5c4OC)c3)cc2C(F)(F)F)CC1`, the remaining binding was 51% (HIPK3; binding, competition with immobilised ligand; 1 µM).
For `NC(=O)[C@@H](O)C[C@H]1CCc2sc3ncnc(O[C@H]4CC[C@H](N5CCOCC5)CC4)c3c21`, the inhibition was 1% (HIPK3; enzyme activity, inhibitor; 10 µM).
For `Cc1cccc(O[C@H]2CCC[C@@H](C(C)CNCc3ccncc3)C2)c1` (relative stereo), the inhibition was 0% (HIPK3; enzyme activity, inhibitor; 1 µM).
`CC(C)=CC1OC(C)(C)C2C=C3C(=O)C(Cl)=CC(O)C3C3C(O)C4OC4C(=O)C132` (stereo not shown) has a remaining binding of 75% (HIPK3; cell-free assay, competition with immobilised ligand; 10 µM).
`O=C=[N][Ru-4]123([n]4c5ccc(O)cc5c5c6c(c7cc(F)c[n+]1c7c54)C(=O)NC6=O)[S+]1CC[S+]2CC[S+]3CC1` (stereo not shown) gave a remaining activity of 91% (HIPK3; enzyme activity; 100 nM, human enzyme, together with: 10 µM ATP; baseline: untreated).
With `CC1CCC(C(C)C)C(OC(=O)Cn2c(-c3ccc(Br)cc3)[n+](C)c3ccccc32)C1.[Cl-]` (stereo not shown) the relative translation was 81.1% (Trypanosoma cruzi; reporter mRNA translation, inhibitor, measured: capped polyadenylated Renilla luciferase mRNA; cell-free extract; concentration not given; baseline: control RNA).
With `COc1cc(Nc2nc(C)cc(-c3cnn4nc(OC)ccc34)n2)cc(C(F)(F)F)c1` the remaining activity was 95% (HIPK3; inhibitor; 1 µM; baseline: control).

Repeated from above:
`CC(C)=CC1OC(C)(C)C2C=C3C(=O)C(Cl)=CC(O)C3C3C(O)C4OC4C(=O)C132` (stereo not shown) has a remaining binding of 75% (HIPK3; cell-free assay, competition with immobilised ligand; 10 µM).
`O=C=[N][Ru-4]123([n]4c5ccc(O)cc5c5c6c(c7cc(F)c[n+]1c7c54)C(=O)NC6=O)[S+]1CC[S+]2CC[S+]3CC1` (stereo not shown) gave a remaining activity of 91% (HIPK3; enzyme activity; 100 nM, human enzyme, together with: 10 µM ATP; baseline: untreated).
